Measurements pooled from the literature.
Numbered parts are unrelated; each lists some results of a single study. Substitutions count along the parent as printed.

Series 1 — technique: RNA Bind-n-Seq; molecule type: RNA; medium: in vitro; concentration: 20 nM; setting: 6-mer, flanks averaged, single round; added: 150 mM LiCl; relative to: input library; reading: higher = stronger binding
Target: TAR DNA-binding protein 43, full length, His tag (TARDBP, Homo sapiens, UniProt Q13148, residues 1-414)
Strand | 6-mer enrichment (R)
CCCACC | 1.06
CCAUAA | 0.877
CAUAUU | 0.979
ACAGGA | 0.866
GACCUA | 0.838
GACGCA | 0.866
CCGAGC | 0.904
GAUAAU | 0.902

Series 2 — technique: EMSA with sequencing; molecule type: double-stranded DNA, one strand shown; medium: in vitro; concentration: 10 and 20 nM; relative to: negative control set to 0; reading: higher = stronger binding
Target: Hepatocyte nuclear factor 3-alpha (Foxa1, Mus musculus, UniProt P35582, residues 1-468, full length assumed)
Setting: whole designed probe, mean of two concentrations, ends assumed
Constant ends, left off below: GTGAGCGGTGCCCATTGATGGGGAAC … TTTCACTGGGATCGTGGGGAC
Target sequence (chain): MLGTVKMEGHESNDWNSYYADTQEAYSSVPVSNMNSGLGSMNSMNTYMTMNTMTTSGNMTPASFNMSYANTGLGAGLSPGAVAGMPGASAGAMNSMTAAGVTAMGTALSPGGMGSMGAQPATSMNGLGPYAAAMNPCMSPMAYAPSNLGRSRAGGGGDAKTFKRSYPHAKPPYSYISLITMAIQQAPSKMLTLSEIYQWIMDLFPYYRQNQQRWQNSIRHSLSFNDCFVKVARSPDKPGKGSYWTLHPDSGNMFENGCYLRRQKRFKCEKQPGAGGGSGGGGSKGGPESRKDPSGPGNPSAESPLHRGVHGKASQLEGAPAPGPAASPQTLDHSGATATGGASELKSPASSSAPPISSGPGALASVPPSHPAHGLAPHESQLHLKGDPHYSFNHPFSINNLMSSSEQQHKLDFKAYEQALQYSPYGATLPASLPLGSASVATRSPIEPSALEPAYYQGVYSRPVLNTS
Strand | normalised bound fraction [ratio]
GGCCTTTCAATATGCTATAGTGTCTATCAGTTTCTTTTAGGCTTATTCTATCACAATTTTCATTCTCTATTAATCCCCTAAGTGTCTCTATAAGTAATTTACTAGATTATTTGGAAAGTTGCTGTTTAAAGAACTACTTGTAAGTTCAAGTGGCCTTTGGAGTGTGAATAAGTACCCATAATTCATCTATGAT | -0.0122
GGCTGTTTAGGTAGCTGGCAGGAAGTAGTATGTGTCTCCAGAGCATAAAATTGGCCGCAAAGTAGGTAGGGCCTATGAAAATACTGATGTAATGTAATCTTTGTATTTCTAAACTATTTACAAGGTCATCCCTACCCTACATGAGAGGTCAGCTCTACCACTAAGAGGTCCCACATGGACTTCTACAATATTC | 0.0151
GGCAGCACTTAGCAGCAGCTACAAATAACAATGGAAAGGTTGGAGAACCCATCACATGCCAGACACAGGGCTAAGTGTGCAGATACCGATTTGAGATTACTTTTGCTCTGTAGAAGAATCAGGAGGATGAGGTCTATTTGGTTTTTACTTTTCCCATCGAGTTATCTCCCACTCTGAGACTGAAGCTGGACTT | 0.0323
TCGGCCAGCCTGGCTTCTGCGCCCCGCCAGGAGGTCGCGGAGCGGAGCGCGGCCAGGAAGTGAGCTGAGAGTGACAGCTCCCCCCACGCTGTTTGTTTATTCATGACTCATTCTCTCCACACACTGGCTCTTCTTTCTTTCGGGAGGAGGGGAGAAAGGAGCGGGAGGGCGGGCGGGCAGGGGAGAGGCAGGC | 0.342
ATCTTCCCCCTCTTCCTTGCCCCACCAGCTCACCTTCCCGGGTCAAAGTAAACAAGTGTTTACTTTGAAGCCGGCATTCGTTAACCCTCTTCACGCGCATACTGCTGTTTACTTTGGATCTAACATGGTCCTTTGGCGACGCCAGGCTCCGGGAGAGCAAAGCACCGTGTCAGGGCCATGATCCGGGGTGGCC | 0.513

Series 3 — target: ATF7, bZIP domain (human); technique: DHFR protein complementation; medium: yeast; relative to: wild-type JUN-FOS pair; reading: higher = stronger binding
Setting: single substitutions, most at no-binding floor
Starting sequence: JUN, bZIP domain (human); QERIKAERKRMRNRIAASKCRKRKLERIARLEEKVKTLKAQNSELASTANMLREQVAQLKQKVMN; partner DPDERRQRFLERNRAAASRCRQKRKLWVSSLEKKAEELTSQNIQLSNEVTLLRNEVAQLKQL
Variant | binding fitness
E33C | -1.25 natural log
T48C | -1.05 natural log
R53V | -1.47 natural log
Q41H | -1.13 natural log
E32M | -0.991 natural log
V35F | -1.4 natural log
R30C | -0.952 natural log
K36L | -1.08 natural log

Mixed results
Structure (SMILES) | organism | observed | concentration | time | setting | endpoint | value
COc1c2occc2cc2ccc(=O)oc12 | Sarcocystis neurona | parasite growth | 10 µM | 96 h | first screen | inhibition | -6.6%

A few entries again (series 3):
Variant | binding fitness
T48C | -1.05 natural log
K36L | -1.08 natural log
